Assay results collected from several papers.
Lines come from different studies, so protocols differ.

SMILES | cell line | test | conditions | how to read | quantity | value
COc1ccc(C2=Nn3c(NN=C4C(=O)N(C)c5ccc(Br)cc54)nnc3SC2)cc1 | UACC-257 | cell growth or viability, SRB | 10 µM | – | inhibition | 19%
COc1cc(CNC(=O)C[C@H](C)CCC=C(C)C)ccc1OCc1cn(-c2ccc(Cl)c(Cl)c2)nn1 | TK-10 | SRB | 10 µM, 48 h | – | growth percent | 90.7%
COC(=O)CC[C@@H](NC(=O)[C@@H](Cc1ccc(OP(=O)(O)O)cc1)NC(=O)[C@@H](Cc1ccccc1)NC(=O)[C@@H](Cc1ccccc1)NC(=O)Cc1ccc2ccccc2c1)C(=O)OC | SAOS-2 | MTT | 10 µM, added: necrostatin-1 50 µM | – | viability | 32%
CC(=O)Oc1ccccc1C(=O)[O][Pt]([NH2])([NH2])([Cl])([Cl])[O]C(=O)C(Cl)Cl | PSN1 | – | 1 µM, 24 h | – | depolarised mitochondria cells | ~15%
C[C@@H](O)[C@H](NC(=O)[C@H](CO)NC(=O)[C@H](CO)NC(=O)[C@@H](N)CCCCN)C(=O)N[C@@H](CCCNC(=N)N)C(=O)NCC(=O)N[C@@H](CCCNC(=N)N)C(=O)N[C@@H](CCCCN)C(=O)N[C@@H](CO)C(=O)N[C@@H](CO)C(=O)N[C@@H](CCCNC(=N)N)C(=O)N[C@@H](CCCNC(=N)N)C(=O)N[C@@H](CCCCN)C(=O)N[C@@H](CCCCN)C(=O)O | LAD2 | agonist | 10 µM, added: Pseudomonas aeruginosa LPS 100 µg/mL, 5 min preincubation | – | LPS effect on degranulation | no effect
O=C1c2c(O)cc(O)cc2-c2c(-c3ccc(O)cc3)oc3cc(O)cc1c23 | LCC2 control shRNA | label-free MS proteomics | 10 µM | – | upregulated protein count | 233
COc1cc(CNC(=O)C[C@H](C)CCC=C(C)C)ccc1OCc1cn(-c2ccc(Br)cc2)nn1 | KM12 | SRB | 10 µM, 48 h | – | growth percent | 94.6%
N=C(N/N=C/c1ccc2ccc3cccc4ccc1c2c34)N/N=C/c1ccc2ccc3cccc4ccc1c2c34 | PANC-1 | crystal violet | 72 h | baseline: IC50 IMR-90 over IC50 PANC-1 | selectivity ratio | 1.2
COc1cc(CNC(=O)C[C@H](C)CCC=C(C)C)ccc1OCc1cn(-c2ccccc2Cl)nn1 | TK-10 | SRB | 10 µM, 48 h | – | growth percent | 93.1%
CCN1CCN(c2ccc(Nc3ncc(C)c(Nc4ccc5cn[nH]c5c4)n3)cc2OC)CC1 | PC-9 | annexin V-FITC/PI flow cytometry | 3 µM, 24 h | – | apoptotic cells | 59.9%
O=Cc1c(O)ccc2ccccc12 | hCMEC/D3 | qPCR, refers to: KLF2 | 50 µM, 4 h | baseline: control | mRNA level | ~1.5 fold
CC/C=C\C/C=C\C/C=C\C/C=C\C/C=C\C/C=C\CCC(=O)Nc1ccn(C2OC(CO)C(O)C2(F)F)c(=O)n1 (stereo not shown) | NCI-H23 | NCI60 screen | – | – | TGI | 12.7 µM
COc1cc(CNC(=O)C[C@H](C)CCC=C(C)C)ccc1OCc1cn(-c2ccccc2[N+](=O)[O-])nn1 | KM12 | SRB | 10 µM, 48 h | – | growth percent | 63.9%
O=C1OCC2=C1C(c1cccc(Br)c1)C1=C(N2)C(=O)c2ccccc2C1=O (stereo not shown) | SK-LU-1 cells | PI flow cytometry | 0.32 µM, 24 h | – | cells in S phase | 5.1%
CC(=O)OC[C@H]1O[C@@H](Sc2sc(C(=O)c3ccc(C)cc3)c(N)c2-c2nc3ccccc3s2)[C@H](OC(C)=O)[C@@H](OC(C)=O)[C@@H]1OC(C)=O | NCI-H322M | SRB | 10 µM, 48 h | baseline: untreated | growth | 81.3%
CNC[C@H](O)c1cccc(O)c1 | hiPSC cardiac tissues 3D | active force | 15 min per concentration, paced at 1 Hz serum-free | – | minimum effective concentration | 0.3 µM
COc1cc(CNC(=O)C[C@H](C)CCC=C(C)C)ccc1OCc1cn(-c2ccc(F)cc2)nn1 | NCI-H23 | SRB | 10 µM, 48 h | – | growth percent | 74.9%
COc1ccc(C2=NN(C3=NC(=O)C(=Cc4ccc(O)cc4)S3)C(c3ccc(F)cc3)C2)cc1 (stereo not shown) | T47D | annexin V-FITC/PI flow cytometry | concentration not given | – | early apoptotic cells | 3.22%
CC(=C(c1ccc(O)cc1)c1ccc(Cl)cc1)c1ccc(Cl)cc1 | NCI-H322M | cell growth or viability, SRB | – | – | GI50 | 0.91 µM

For quick reference, copied from above:
SMILES | cell line | test | conditions | how to read | quantity | value
COc1cc(CNC(=O)C[C@H](C)CCC=C(C)C)ccc1OCc1cn(-c2ccc(Cl)c(Cl)c2)nn1 | TK-10 | SRB | 10 µM, 48 h | – | growth percent | 90.7%
COC(=O)CC[C@@H](NC(=O)[C@@H](Cc1ccc(OP(=O)(O)O)cc1)NC(=O)[C@@H](Cc1ccccc1)NC(=O)[C@@H](Cc1ccccc1)NC(=O)Cc1ccc2ccccc2c1)C(=O)OC | SAOS-2 | MTT | 10 µM, added: necrostatin-1 50 µM | – | viability | 32%
